Results gathered from unrelated publications.
Lines come from different studies, so protocols differ.
Organism: Bacillus subtilis

| Structure (SMILES) | test | test system | setting | MIC |
| --- | --- | --- | --- | --- |
| CN1C(=O)[C@@H]2NC(=O)[C@@H]3NC(=O)[C@@H](c4ccc(O)cc4)NC(=O)[C@H](NC(=O)C(NCc4cccc(O)c4O)c4ccc(O)cc4)Cc4c[nH]c5cc(ccc45)-c4cc3cc(c4O)Oc3ccc(cc3)C[C@H]1C(=O)N[C@@H](C(=O)O)c1ccc(O)c(c1)Oc1ccc2cc1 (some centres unmarked) |  | 168, Mueller-Hinton broth |  | 4 mg/L |
| CC[C@H](C)[C@H](N)C1=N[C@H](C(=O)N[C@@H](Cc2ccccc2)C(=O)N[C@H](CCC(=O)O)C(=O)N[C@H](C(=O)N[C@H]2CCCCNC(=O)[C@H](CC(N)=O)NC(=O)[C@@H](CC(=O)O)NC(=O)[C@H](Cc3c[nH]cn3)NC(=O)[C@@H](Cc3ccccc3)NC(=O)[C@H]([C@@H](C)CC)NC(=O)[C@@H](CCCN)NC2=O)[C@@H](C)CC)CS1 |  | 168 | 18 h, 37 °C, together with: ZnSO4 0.3 mM | 32 mg/L |
| CC[C@H](C)[C@H](NC(=O)[C@H](CCCNC(=N)N)NC(=O)[C@H](CCCNC(=N)N)NC(=O)[C@H](CCCCN)NC(=O)[C@H](CC(N)=O)NC(=O)[C@H](CS)NC(=O)[C@H](Cc1ccc(O)cc1)NC(=O)CNC(=O)CNC(=O)[C@H](CCCNC(=N)N)NC(=O)[C@H](CCCCN)NC(=O)[C@H](CCCNC(=N)N)NC(=O)[C@H](CCCCN)NC(=O)[C@H](CC(C)C)NC(=O)[C@H](CC(C)C)NC(=O)[C@H](CS)NC(=O)[C@H](Cc1c[nH]cn1)NC(=O)[C@H](C)NC(=O)[C@H](C)NC(=O)[C@H](CS)NC(=O)[C@H](C)NC(=O)[C@H](C)NC(=O)[C@H](Cc1c[nH]cn1)NC(=O)[C@H](CC(N)=O)NC(=O)[C@@H](NC(=O)[C@H](CCCCN)NC(=O)[C@@H](NC(=O)CNC(=O)[C@H](CCCCN)NC(=O)[C@H](C)NC(=O)[C@H](CCC(=O)O)NC(=O)[C@H](C)NC(=O)[C@H](CO)NC(=O)[C@H](CC(C)C)NC(=O)[C@H](CC(C)C)NC(=O)[C@H](CC(=O)O)NC(=O)[C@H](CS)NC(=O)[C@@H](NC(=O)[C@@H](N)C(C)C)[C@@H](C)O)C(C)C)C(C)C)C(=O)N[C@@H](CS)C(=O)N[C@H](C(=O)N[C@@H](CS)C(=O)N[C@@H](CCCNC(=N)N)C(=O)N[C@@H](CC(N)=O)C(N)=O)C(C)C |  |  |  | 6 mg/L |
| CC[C@H](C)[C@H](NC(=O)[C@H](CCCCN)NC(=O)[C@H](CC(N)=O)NC(=O)[C@H](Cc1c[nH]c2ccccc12)NC(=O)[C@H](Cc1ccccc1)NC(=O)[C@H](CCCCN)NC(=O)[C@H](CCCNC(=N)N)NC(=O)[C@H](CC(C)C)NC(=O)[C@H](Cc1c[nH]c2ccccc12)NC(=O)[C@H](CCCCN)NC(=O)[C@H](CCCNC(=N)N)NC(=O)[C@H](CC(C)C)NC(=O)CNC(C)=O)C(=O)N[C@@H](CCCCN)C(=O)N[C@@H](CCCNC(=N)N)C(N)=O | broth microdilution | ATCC 6633 |  | 3.12 µM |
| CC(C)C[C@@H]1NC(=O)[C@H](CC(C)C)NC(=O)[C@H](CCCCN)NC(=O)CSC[C@@H]2NC(=O)[C@H](CC(C)C)NC(=O)[C@H](CCCCN)NC(=O)[C@H](CCCCNC1=O)NC(=O)[C@H](CC(C)C)NC(=O)[C@H](CC(C)C)NC(=O)[C@H](CCCCN)NC(=O)CSC[C@@H](C(N)=O)NC(=O)[C@H](CC(C)C)NC(=O)[C@H](CCCCN)NC(=O)[C@H](CCCCN)NC2=O |  | BR 151 | 18 h | 16 mg/L |
| CC[C@H](C)[C@H](NC(=O)[C@H](NC(=O)[C@@H](CCCNC(=N)N)NC(=O)[C@@H](N)COC(=O)[C@@H](NC(=O)[C@@H](Cc1ccccc1)NC)[C@@H](C)CC)[C@@H](C)CC)C(=O)N[C@@H](CO)C(=O)N[C@H]1C(=O)N[C@@H](C)C(=O)N[C@@H](CC(C)C)C(=O)N[C@@H]([C@@H](C)CC)C(=O)O[C@H]1C | broth microdilution | ATCC 6051, Mueller-Hinton broth | 16 h, 37 °C | 0.0078 to 0.0156 mg/L |
| CCCCCCCCCCCC[S+]([O-])CC1OC(OC2C(N)CC(N)C(OC3OC(CN)C(O)CC3N)C2O)C(O)C(N)C1O (mixture of isomers) |  | 168 AAC(6')/APH(2'') plasmid |  | > 150 mg/L |
| CC[C@H](C)[C@H](NC(=O)[C@@H](NC(=O)[C@H](CCCCN)NC(=O)CNC(=O)[C@@H](NC(=O)[C@@H](NC(=O)[C@H](CO)NC(=O)[C@@H](NC(=O)[C@@H](NC(=O)[C@@H]1CCCN1C(=O)[C@@H](NC(=O)[C@@H](NC(=O)CN)[C@@H](C)CC)[C@@H](C)CC)[C@@H](C)CC)[C@@H](C)CC)[C@@H](C)CC)[C@@H](C)CC)[C@@H](C)CC)C(N)=O | broth microdilution |  |  | > 30 µM |
| CN[C@@H]1[C@H](O)[C@H](NC)[C@H]2O[C@]3(O)[C@H](O[C@@H]2[C@H]1O)O[C@H](C)C[C@]3(O)CNCc1ccc(OC(F)(F)F)cc1 |  | ATCC 23857 |  | 100 to 200 mg/L |
| CN1C(=O)[C@@H]2NC(=O)[C@@H]3NC(=O)[C@@H](c4ccc(O)cc4)NC(=O)[C@H](NC(=O)C(NCc4ccccn4)c4ccc(O)cc4)Cc4c[nH]c5cc(ccc45)-c4cc3cc(c4O)Oc3ccc(cc3)C[C@H]1C(=O)N[C@@H](C(=O)O)c1ccc(O)c(c1)Oc1ccc2cc1 (some centres unmarked) |  | 168, Mueller-Hinton broth |  | 4 mg/L |
| CC(C)C[C@@H]1NC(=O)CSC[C@@H](C(=O)N[C@@H](CCCCN)C(N)=O)NC(=O)[C@H](CC(C)C)NC(=O)[C@H](CCCCN)NC(=O)[C@H](CCCCN)NC(=O)[C@@H]2CSCC(=O)N[C@@H](CC(C)C)C(=O)N[C@@H](CC(C)C)C(=O)N[C@@H](CCCCNC(=O)[C@H](CC(C)C)NC1=O)C(=O)N[C@@H](CCCCN)C(=O)N[C@@H](CC(C)C)C(=O)N[C@@H](CCCCN)C(=O)N2 |  | BR 151 | 18 h | 16 mg/L |
| Cc1cccc(C)c1SCC1OC(OC2C(N)CC(N)C(OC3OC(CN)C(O)CC3N)C2O)C(O)C(N)C1O (centres unmarked) |  | 168 |  | 37.5 mg/L |
| CC[C@@H](C)[C@H]1NC(=O)[C@H]([C@@H](C)CC)NC(=O)[C@@H](CCCN)NC(=O)[C@@H](NC(=O)[C@@H](NC(=O)[C@@H](CCC(=O)O)NC(=O)[C@H](CC(C)C)NC(=O)[C@@H]2CSC([C@@H](N)[C@@H](C)CC)=N2)[C@@H](C)CC)CCCCNC(=O)[C@H](CC(N)=O)NC(=O)[C@@H](CC(=O)O)NC(=O)[C@H](Cc2c[nH]cn2)NC1=O |  | 168 | 18 h, 37 °C, together with: ZnSO4 0.3 mM | 64 mg/L |
| CC[C@H](C)[C@H](NC(=O)[C@H](CCCN)NC(=O)[C@H](CC(N)=O)NC(=O)[C@H](Cc1c[nH]c2ccccc12)NC(=O)[C@H](Cc1ccccc1)NC(=O)[C@H](CCCN)NC(=O)[C@H](CCCCNC(=N)N)NC(=O)[C@H](CC(C)C)NC(=O)[C@H](Cc1c[nH]c2ccccc12)NC(=O)[C@H](CCCN)NC(=O)[C@H](CCCCNC(=N)N)NC(=O)[C@H](CC(C)C)NC(=O)CNC(C)=O)C(=O)N[C@@H](CCCN)C(=O)N[C@@H](CCCCNC(=N)N)C(N)=O | broth microdilution | ATCC 6633 |  | 3.12 µM |
| CCCCCCCCCC(=O)NCCCC[C@H](NC(=O)[C@H](CCCCN)NC(=O)[C@@H]1CSCC(=O)N[C@@H](CCCCN)C(=O)N[C@@H](CC(C)C)C(=O)N[C@@H](CCCCN)C(=O)N[C@H]2CCCCNC(=O)[C@H](CCCCN)NC(=O)[C@H](CC(C)C)NC(=O)[C@H](CCCCN)NC(=O)CSC[C@H](NC(=O)[C@H](CC(C)C)NC(=O)[C@H](CC(C)C)NC(=O)[C@H](CCCCN)NC2=O)C(=O)N[C@@H](CC(C)C)C(=O)N[C@@H](CC(C)C)C(=O)N[C@@H](CC(C)C)C(=O)N1)C(N)=O |  | BR 151 | 18 h | 4 mg/L |
| CCCCCCCCCCCCCc1cc(O)cc(O)c1 | microbial growth, broth dilution | 168 |  | 1 to 8 mg/L |
| CC(C)C[C@@H]1NC(=O)[C@H](CCN)NC(=O)CSC[C@@H]2NC(=O)[C@H](CC(C)C)NC(=O)[C@H](CC(C)C)NC(=O)[C@H](CCN)NC(=O)[C@H](CCCCNC(=O)[C@H](CCN)NC1=O)NC(=O)[C@H](CCN)NC(=O)[C@H](CC(C)C)NC(=O)[C@H](CCN)NC(=O)CSC[C@@H](C(=O)N[C@@H](CCN)C(N)=O)NC(=O)[C@H](CC(C)C)NC(=O)[C@H](CC(C)C)NC(=O)[C@H](CC(C)C)NC2=O |  | BR 151 | 18 h | 4 mg/L |
| CN1C(=O)[C@@H]2NC(=O)[C@@H]3NC(=O)[C@@H](c4ccc(O)cc4)NC(=O)[C@H](NC(=O)C(NCc4cc(C(F)(F)F)cc(C(F)(F)F)c4)c4ccc(O)cc4)Cc4c[nH]c5cc(ccc45)-c4cc3cc(c4O)Oc3ccc(cc3)C[C@H]1C(=O)N[C@@H](C(=O)O)c1ccc(O)c(c1)Oc1ccc2cc1 (some centres unmarked) |  | 168, Mueller-Hinton broth |  | 8 mg/L |
| CC(C)C[C@H](NC(=O)[C@@H]1CSCC(=O)N[C@H]2CCCCNC(=O)CSC[C@H](NC(=O)[C@H](CCCCN)NC2=O)C(=O)N[C@@H](CCCCN)C(=O)N[C@@H](CC(C)C)C(=O)N1)C(N)=O |  | BR 151 | 18 h | > 256 mg/L |
| CC(C)C[C@H](NC(=O)[C@H](CC(C)C)NC(=O)[C@H](CCCCN)NC(=O)CNC(=O)[C@H](CC(C)C)NC(=O)[C@H](CC(C)C)NC(=O)[C@H](CO)NC(=O)[C@H](CC(C)C)NC(=O)[C@H](CC(C)C)NC(=O)[C@H](CO)NC(=O)[C@H](CC(C)C)NC(=O)[C@H](CC(C)C)NC(=O)CN)C(N)=O | broth microdilution |  |  | > 120 µM |

For quick reference, copied from above:
| Structure (SMILES) | test | test system | setting | MIC |
| --- | --- | --- | --- | --- |
| CN[C@@H]1[C@H](O)[C@H](NC)[C@H]2O[C@]3(O)[C@H](O[C@@H]2[C@H]1O)O[C@H](C)C[C@]3(O)CNCc1ccc(OC(F)(F)F)cc1 |  | ATCC 23857 |  | 100 to 200 mg/L |
| CN1C(=O)[C@@H]2NC(=O)[C@@H]3NC(=O)[C@@H](c4ccc(O)cc4)NC(=O)[C@H](NC(=O)C(NCc4ccccn4)c4ccc(O)cc4)Cc4c[nH]c5cc(ccc45)-c4cc3cc(c4O)Oc3ccc(cc3)C[C@H]1C(=O)N[C@@H](C(=O)O)c1ccc(O)c(c1)Oc1ccc2cc1 (some centres unmarked) |  | 168, Mueller-Hinton broth |  | 4 mg/L |
